{"data": "Published values collected from several papers", "note": "A part holds a random share of what one study measured.", "sequence of UniProt Q9UQB9 (whole entry, looked up)": "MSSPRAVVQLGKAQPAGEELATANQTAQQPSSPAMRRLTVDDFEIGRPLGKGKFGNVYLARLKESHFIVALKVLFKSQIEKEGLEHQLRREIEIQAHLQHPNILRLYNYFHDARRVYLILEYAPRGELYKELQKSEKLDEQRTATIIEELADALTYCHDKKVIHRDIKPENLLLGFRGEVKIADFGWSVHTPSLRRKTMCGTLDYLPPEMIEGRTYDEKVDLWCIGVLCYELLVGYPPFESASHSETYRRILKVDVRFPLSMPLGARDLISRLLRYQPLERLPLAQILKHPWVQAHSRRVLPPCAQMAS", "sequence of UniProt Q02750 (whole entry, looked up)": "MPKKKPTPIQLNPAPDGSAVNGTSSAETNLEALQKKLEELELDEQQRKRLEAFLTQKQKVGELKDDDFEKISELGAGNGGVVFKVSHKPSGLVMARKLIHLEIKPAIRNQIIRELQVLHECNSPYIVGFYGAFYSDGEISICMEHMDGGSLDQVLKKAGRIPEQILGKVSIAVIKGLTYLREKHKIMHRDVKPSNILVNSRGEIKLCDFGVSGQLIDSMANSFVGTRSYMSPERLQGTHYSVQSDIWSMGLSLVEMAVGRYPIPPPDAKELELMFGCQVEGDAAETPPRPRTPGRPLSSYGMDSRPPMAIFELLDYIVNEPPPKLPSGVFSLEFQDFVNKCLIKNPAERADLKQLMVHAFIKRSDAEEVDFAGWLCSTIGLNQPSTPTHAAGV", "sequence of UniProt O94804 (whole entry, looked up)": "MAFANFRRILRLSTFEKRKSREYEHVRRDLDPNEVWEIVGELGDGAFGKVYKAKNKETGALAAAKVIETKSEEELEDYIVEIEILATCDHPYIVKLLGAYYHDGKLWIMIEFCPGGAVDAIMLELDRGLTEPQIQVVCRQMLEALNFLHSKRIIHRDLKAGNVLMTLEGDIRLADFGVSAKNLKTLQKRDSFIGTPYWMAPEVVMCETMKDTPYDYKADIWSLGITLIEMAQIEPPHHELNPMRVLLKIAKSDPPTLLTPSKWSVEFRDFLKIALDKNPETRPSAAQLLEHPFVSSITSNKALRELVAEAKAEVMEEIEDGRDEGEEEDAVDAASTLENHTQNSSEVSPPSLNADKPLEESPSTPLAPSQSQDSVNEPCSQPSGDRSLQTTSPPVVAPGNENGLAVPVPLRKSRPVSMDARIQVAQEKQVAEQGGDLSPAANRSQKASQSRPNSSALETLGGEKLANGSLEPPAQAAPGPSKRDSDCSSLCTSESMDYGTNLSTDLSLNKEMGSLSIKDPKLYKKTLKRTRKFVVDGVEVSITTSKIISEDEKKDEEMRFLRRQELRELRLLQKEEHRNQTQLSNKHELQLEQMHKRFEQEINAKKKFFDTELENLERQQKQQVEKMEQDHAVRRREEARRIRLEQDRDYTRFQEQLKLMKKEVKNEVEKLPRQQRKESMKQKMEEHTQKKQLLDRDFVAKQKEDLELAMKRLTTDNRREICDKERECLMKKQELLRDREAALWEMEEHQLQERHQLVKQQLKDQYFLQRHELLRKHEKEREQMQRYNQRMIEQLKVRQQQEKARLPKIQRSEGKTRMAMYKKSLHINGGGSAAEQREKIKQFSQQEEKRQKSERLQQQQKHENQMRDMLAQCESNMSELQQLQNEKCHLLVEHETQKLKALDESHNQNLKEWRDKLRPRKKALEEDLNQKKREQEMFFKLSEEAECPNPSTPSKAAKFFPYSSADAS", "sequence of UniProt Q13976 (whole entry, looked up)": "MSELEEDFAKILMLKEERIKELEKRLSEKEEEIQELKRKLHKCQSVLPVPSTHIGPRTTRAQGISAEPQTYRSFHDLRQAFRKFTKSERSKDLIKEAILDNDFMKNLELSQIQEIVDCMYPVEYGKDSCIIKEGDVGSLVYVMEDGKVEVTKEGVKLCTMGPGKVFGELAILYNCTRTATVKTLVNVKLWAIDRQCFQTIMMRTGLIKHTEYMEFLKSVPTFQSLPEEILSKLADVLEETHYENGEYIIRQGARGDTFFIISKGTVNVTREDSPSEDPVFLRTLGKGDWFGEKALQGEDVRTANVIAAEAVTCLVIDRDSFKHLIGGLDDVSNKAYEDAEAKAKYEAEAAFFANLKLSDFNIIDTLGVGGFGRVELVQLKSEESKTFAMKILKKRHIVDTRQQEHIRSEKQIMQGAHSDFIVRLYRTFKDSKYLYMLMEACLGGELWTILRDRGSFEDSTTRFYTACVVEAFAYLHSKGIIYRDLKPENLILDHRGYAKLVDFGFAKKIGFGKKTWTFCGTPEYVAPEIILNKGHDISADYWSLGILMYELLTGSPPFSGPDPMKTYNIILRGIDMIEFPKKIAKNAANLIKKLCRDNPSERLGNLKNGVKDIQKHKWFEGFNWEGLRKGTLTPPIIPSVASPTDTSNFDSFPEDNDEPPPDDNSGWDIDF", "sequence of UniProt P37173 (whole entry, looked up)": "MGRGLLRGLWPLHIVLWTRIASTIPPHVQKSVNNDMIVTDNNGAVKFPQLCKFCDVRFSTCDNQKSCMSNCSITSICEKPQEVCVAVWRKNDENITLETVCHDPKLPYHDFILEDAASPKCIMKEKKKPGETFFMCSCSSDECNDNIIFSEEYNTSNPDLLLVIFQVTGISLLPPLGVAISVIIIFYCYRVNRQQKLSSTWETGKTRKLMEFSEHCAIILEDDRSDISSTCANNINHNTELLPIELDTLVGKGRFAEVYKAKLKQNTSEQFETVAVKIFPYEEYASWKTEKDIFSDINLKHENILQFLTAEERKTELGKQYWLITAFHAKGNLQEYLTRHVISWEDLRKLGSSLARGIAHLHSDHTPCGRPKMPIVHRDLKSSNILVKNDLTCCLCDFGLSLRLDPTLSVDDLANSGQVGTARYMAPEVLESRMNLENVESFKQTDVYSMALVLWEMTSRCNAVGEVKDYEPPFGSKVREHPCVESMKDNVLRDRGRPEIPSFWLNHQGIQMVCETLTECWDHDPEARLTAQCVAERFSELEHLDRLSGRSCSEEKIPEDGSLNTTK", "sequence of UniProt O00238 (whole entry, looked up)": "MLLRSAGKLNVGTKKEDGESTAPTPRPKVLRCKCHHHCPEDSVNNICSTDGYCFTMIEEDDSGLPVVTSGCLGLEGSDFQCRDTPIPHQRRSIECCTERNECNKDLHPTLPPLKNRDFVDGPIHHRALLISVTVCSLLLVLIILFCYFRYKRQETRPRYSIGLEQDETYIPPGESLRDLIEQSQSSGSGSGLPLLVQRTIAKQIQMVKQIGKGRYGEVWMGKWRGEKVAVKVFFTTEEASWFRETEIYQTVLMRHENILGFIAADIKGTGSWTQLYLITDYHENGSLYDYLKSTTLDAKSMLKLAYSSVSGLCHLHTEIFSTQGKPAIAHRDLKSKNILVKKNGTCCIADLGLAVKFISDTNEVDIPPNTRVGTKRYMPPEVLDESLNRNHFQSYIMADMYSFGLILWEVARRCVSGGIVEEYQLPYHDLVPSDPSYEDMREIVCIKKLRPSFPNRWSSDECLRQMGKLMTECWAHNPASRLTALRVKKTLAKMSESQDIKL", "sequence of UniProt O75716 (whole entry, looked up)": "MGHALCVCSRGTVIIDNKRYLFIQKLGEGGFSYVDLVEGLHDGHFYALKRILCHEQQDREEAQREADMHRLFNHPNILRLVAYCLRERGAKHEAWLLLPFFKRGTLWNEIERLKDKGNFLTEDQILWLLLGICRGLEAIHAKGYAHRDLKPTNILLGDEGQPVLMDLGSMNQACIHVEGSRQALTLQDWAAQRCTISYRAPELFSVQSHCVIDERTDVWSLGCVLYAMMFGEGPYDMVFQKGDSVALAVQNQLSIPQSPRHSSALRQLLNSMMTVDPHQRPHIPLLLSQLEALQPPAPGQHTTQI", "sequence of UniProt P49841 (whole entry, looked up)": "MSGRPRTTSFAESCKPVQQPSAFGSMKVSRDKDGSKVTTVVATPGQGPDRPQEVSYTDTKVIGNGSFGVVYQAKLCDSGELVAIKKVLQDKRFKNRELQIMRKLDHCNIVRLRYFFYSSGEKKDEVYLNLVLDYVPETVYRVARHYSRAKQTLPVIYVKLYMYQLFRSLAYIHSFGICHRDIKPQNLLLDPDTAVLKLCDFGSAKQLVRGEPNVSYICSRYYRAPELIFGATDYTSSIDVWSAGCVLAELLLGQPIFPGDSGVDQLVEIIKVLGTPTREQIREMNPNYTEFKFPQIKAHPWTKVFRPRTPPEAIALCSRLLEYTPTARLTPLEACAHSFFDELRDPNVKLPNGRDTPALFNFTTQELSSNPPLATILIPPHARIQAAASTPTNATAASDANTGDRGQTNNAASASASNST", "sequence of UniProt Q96RR4 (whole entry, looked up)": "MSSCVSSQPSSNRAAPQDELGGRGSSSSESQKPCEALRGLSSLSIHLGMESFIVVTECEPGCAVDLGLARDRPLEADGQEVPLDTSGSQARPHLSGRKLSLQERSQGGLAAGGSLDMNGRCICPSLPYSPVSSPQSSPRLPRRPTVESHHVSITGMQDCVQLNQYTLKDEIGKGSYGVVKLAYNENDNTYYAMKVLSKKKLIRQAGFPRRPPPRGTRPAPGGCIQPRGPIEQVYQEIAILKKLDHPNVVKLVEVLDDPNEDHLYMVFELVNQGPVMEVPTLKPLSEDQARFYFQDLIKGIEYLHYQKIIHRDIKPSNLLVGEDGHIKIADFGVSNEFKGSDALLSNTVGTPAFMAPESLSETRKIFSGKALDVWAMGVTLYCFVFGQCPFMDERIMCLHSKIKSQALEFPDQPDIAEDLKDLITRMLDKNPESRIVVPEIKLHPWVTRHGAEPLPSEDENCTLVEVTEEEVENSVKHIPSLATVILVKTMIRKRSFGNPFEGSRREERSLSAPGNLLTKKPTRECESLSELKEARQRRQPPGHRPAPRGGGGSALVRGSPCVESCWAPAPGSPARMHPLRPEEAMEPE"}
{"data": "Study 1", "Compound": "CC(C)n1cnc(-c2ccc(F)cc2)c1-c1ncc(C(=O)Nc2ccc(N3CCN(C)CC3)cc2)[nH]1", "technique": "phase 2a trial", "host": "idiopathic pulmonary fibrosis patients"}
{"setting": "all arms, grade 2 emergent event", "patients with leukocytosis": "0%"}
{"setting": "60 mg once daily, grade 3 emergent event", "patients with leukocytosis": "0%"}
{"setting": "30 mg once daily, grade 4 emergent event", "patients with leukocytosis": "0%"}
{"setting": "all arms, grade 5 emergent event", "patients with leukocytosis": "0%"}
{"setting": "all arms, grade 3 emergent event", "patients with leukocytosis": "0%"}
{"setting": "60 mg once daily, grade 4 emergent event", "patients with leukocytosis": "0%"}
{"data": "Study 2", "cell line": "HaCaT", "concentration": "100 µM", "time": "36 h"}
{"Compound": "CC1(C)O[C@@H]2[C@@H](CO[C@@]3(COS(N)(=O)=O)OC(C)(C)O[C@@H]23)O1", "viability [%]": 90.2}
{"Compound": "c1ccc(Cc2nc3ccccc3[nH]2)cc1", "viability [%]": 86.7}
{"Compound": "O[C@@H](c1cc(C(F)(F)F)nc2c(C(F)(F)F)cccc12)[C@H]1CCCCN1", "viability [%]": 111}
{"Compound": "COc1ccc2cccc(CCNC(C)=O)c2c1", "viability [%]": 51.8}
{"Compound": "NS(=O)(=O)c1cc2c(cc1Cl)NCNS2(=O)=O", "viability [%]": 82.4}
{"Compound": "COC(=O)[C@H]1[C@H]2C[C@@H]3c4[nH]c5cc(OC)ccc5c4CCN3C[C@H]2C[C@@H](OC(=O)c2cc(OC)c(OC)c(OC)c2)[C@@H]1OC", "viability [%]": 57.1}
{"Compound": "CC(C)NCC(O)c1ccc(O)c(O)c1 (centres unmarked)", "viability [%]": 46.4}
{"Compound": "CCCCCNC(=N)N/N=C/c1c[nH]c2ccc(OC)cc12", "viability [%]": 6.56}
{"Compound": "N[C@@H](Cc1c[nH]c2ccc(O)cc12)C(=O)O", "viability [%]": 92}
{"Compound": "O=C(O)CCCNC(=O)c1cccnc1", "viability [%]": 99.9}
{"Compound": "COc1cc2nccc(Oc3ccc(NC(=O)NC4CC4)c(Cl)c3)c2cc1C(N)=O", "viability [%]": 54.6}
{"Compound": "CCOC(=O)c1ccc(C#Cc2ccc3c(c2)C(C)(C)CCS3)nc1", "viability [%]": 74.6}
{"Compound": "O=C1OC2(c3ccc(O)cc3Oc3cc(O)ccc32)c2ccccc21", "viability [%]": 176}
{"Compound": "NCCCCCC(=O)O", "viability [%]": 97.5}
{"data": "Study 3", "Structure (SMILES)": "C[C@@]1(Cc2ccc(C#N)cc2)C(=O)N(c2cc(Cl)cc(Cl)c2)c2ncc(C(=O)NC3(c4nc(C5CCC5)no4)CC3)n21", "observed": "cell-free assay", "technique": "competition with immobilised ligand", "concentration": "1 µM"}
{"target": "MAP3K6 (Homo sapiens, UniProt O95382)", "remaining binding [%]": 82}
{"target": "GSK3B (Homo sapiens, UniProt P49841)", "remaining binding [%]": 100}
{"target": "MAP4K2 (Homo sapiens, UniProt Q12851)", "remaining binding [%]": 100}
{"target": "MAP2K1 (Homo sapiens, UniProt Q02750)", "remaining binding [%]": 97}
{"target": "MAP3K19 (Homo sapiens, UniProt Q56UN5)", "remaining binding [%]": 100}
{"target": "BMPR1B (Homo sapiens, UniProt O00238)", "remaining binding [%]": 100}
{"target": "CSNK2A2 (Homo sapiens, UniProt P19784)", "remaining binding [%]": 100}
{"target": "MET (Homo sapiens, UniProt P08581, M1250T)", "remaining binding [%]": 100}
{"target": "STK32C (Homo sapiens, UniProt Q86UX6)", "remaining binding [%]": 99}
{"target": "STK16 (Homo sapiens, UniProt O75716)", "remaining binding [%]": 100}
{"target": "MARK4 (Homo sapiens, UniProt Q96L34)", "remaining binding [%]": 100}
{"target": "Ribosomal protein S6 kinase alpha-2, N-terminal kinase domain (RPS6KA2, Homo sapiens, UniProt Q15349)", "remaining binding [%]": 100}
{"target": "HCK (Homo sapiens, UniProt P08631)", "remaining binding [%]": 100}
{"target": "Aurora kinase C (AURKC, Homo sapiens, UniProt Q9UQB9)", "remaining binding [%]": 100}
{"data": "Study 4", "SMILES": "CCN(CC)CCNC(=O)c1c(C)[nH]c(/C=C2\\C(=O)Nc3ccc(F)cc32)c1C", "observed": "enzyme activity", "action": "inhibitor", "concentration": "0.5 µM", "reference": "control"}
{"target": "CAMKK2 (Homo sapiens, UniProt Q96RR4)", "remaining activity [%]": 65.3}
{"target": "PRKACA (Homo sapiens, UniProt P17612)", "remaining activity [%]": 89.1}
{"target": "STK10 (Homo sapiens, UniProt O94804)", "remaining activity [%]": 31.2}
{"target": "Protein kinase C beta type, isoform beta-I (PRKCB, Homo sapiens, UniProt P05771)", "remaining activity [%]": 90.2}
{"target": "PRKCA (Homo sapiens, UniProt P17252)", "remaining activity [%]": 79.9}
{"target": "OXSR1 (Homo sapiens, UniProt O95747)", "remaining activity [%]": 105}
{"target": "GRK3 (Homo sapiens, UniProt P35626)", "remaining activity [%]": 94.8}
{"target": "TGFBR1 (Homo sapiens, UniProt P36897)", "remaining activity [%]": 101}
{"target": "MAP3K3 (Homo sapiens, UniProt Q99759)", "remaining activity [%]": 42}
{"target": "STK39 (Homo sapiens, UniProt Q9UEW8)", "remaining activity [%]": 87.4}
{"target": "cGMP-dependent protein kinase 1, isoform beta (PRKG1, Homo sapiens, UniProt Q13976)", "remaining activity [%]": 88.8}
{"target": "IKBKB (Homo sapiens, UniProt O14920)", "remaining activity [%]": 81}
{"target": "Tyrosine-protein kinase Lyn, isoform B (LYN, Homo sapiens, UniProt P07948)", "remaining activity [%]": 34.6}
{"target": "CAMK2D (Homo sapiens, UniProt Q13557)", "remaining activity [%]": 11.6}
{"target": "TGFBR2 (Homo sapiens, UniProt P37173)", "remaining activity [%]": 92.5}
{"target": "NEK2 (Homo sapiens, UniProt P51955)", "remaining activity [%]": 106}
